Measured values pooled from the literature.
A part holds a random share of what one study measured.
Sequence of UniProt Q15831 (whole entry, looked up): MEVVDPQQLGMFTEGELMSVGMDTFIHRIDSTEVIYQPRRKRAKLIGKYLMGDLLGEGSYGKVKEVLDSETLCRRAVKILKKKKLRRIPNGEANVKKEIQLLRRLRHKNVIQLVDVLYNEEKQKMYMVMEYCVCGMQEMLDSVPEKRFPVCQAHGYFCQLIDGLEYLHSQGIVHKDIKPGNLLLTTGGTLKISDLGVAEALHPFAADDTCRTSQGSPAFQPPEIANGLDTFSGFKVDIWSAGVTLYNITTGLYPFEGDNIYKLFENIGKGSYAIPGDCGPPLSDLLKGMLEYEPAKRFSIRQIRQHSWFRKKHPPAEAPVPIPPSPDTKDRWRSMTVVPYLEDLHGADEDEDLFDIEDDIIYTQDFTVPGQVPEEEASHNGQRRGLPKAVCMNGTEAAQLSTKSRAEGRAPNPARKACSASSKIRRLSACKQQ
Sequence of UniProt O96017 (whole entry, looked up): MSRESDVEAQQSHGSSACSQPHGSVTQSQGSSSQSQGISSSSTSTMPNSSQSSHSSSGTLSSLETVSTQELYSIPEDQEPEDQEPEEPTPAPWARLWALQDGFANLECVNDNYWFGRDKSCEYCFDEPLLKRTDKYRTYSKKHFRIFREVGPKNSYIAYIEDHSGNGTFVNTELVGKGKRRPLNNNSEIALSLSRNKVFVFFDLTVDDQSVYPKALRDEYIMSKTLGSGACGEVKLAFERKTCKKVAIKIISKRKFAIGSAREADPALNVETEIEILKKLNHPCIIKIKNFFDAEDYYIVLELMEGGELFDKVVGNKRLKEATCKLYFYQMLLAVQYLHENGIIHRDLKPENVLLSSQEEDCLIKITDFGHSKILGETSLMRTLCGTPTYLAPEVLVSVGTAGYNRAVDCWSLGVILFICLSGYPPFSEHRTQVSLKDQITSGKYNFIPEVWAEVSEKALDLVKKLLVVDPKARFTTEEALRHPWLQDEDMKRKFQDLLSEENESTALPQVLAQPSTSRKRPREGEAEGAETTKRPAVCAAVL
Sequence of UniProt O94804 (whole entry, looked up): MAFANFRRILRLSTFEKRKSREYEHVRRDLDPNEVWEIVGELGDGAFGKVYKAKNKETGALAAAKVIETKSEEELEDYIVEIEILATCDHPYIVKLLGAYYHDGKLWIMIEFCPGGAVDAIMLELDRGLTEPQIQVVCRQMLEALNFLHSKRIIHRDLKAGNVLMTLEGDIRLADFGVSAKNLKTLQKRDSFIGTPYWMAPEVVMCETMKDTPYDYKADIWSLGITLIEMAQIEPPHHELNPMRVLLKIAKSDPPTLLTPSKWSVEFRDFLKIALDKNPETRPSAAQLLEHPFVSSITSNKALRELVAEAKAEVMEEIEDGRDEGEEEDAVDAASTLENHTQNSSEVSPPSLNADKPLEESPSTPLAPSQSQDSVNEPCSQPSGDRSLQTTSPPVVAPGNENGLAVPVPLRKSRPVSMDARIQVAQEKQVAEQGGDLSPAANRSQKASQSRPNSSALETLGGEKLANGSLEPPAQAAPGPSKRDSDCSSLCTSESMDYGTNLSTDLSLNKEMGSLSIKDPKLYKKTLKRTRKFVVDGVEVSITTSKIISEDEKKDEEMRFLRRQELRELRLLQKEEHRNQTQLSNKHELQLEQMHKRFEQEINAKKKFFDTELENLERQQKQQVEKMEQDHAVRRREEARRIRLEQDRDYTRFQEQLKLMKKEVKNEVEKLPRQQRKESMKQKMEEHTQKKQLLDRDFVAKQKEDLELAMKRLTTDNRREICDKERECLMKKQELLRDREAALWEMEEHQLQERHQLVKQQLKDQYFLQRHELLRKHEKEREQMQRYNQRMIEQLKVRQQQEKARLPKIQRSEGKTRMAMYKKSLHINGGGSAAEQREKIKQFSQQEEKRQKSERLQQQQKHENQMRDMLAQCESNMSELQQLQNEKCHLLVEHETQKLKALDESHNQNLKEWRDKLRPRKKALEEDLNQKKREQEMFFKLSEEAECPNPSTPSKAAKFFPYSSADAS
Sequence of UniProt P37173 (whole entry, looked up): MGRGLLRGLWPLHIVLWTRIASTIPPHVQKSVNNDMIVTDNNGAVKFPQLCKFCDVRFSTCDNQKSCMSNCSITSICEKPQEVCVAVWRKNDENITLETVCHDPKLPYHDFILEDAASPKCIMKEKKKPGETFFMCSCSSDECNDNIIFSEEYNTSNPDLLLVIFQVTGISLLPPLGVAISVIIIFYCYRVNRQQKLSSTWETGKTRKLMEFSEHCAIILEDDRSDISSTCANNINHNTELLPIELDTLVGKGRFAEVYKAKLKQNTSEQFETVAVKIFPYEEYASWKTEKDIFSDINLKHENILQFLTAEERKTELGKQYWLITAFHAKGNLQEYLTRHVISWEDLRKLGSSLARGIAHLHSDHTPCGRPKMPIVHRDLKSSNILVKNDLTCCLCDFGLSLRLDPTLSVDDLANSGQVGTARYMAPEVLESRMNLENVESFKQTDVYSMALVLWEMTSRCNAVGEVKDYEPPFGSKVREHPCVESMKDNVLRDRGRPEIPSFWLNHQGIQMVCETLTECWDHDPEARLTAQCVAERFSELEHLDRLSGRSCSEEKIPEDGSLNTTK
Sequence of UniProt O95747 (whole entry, looked up): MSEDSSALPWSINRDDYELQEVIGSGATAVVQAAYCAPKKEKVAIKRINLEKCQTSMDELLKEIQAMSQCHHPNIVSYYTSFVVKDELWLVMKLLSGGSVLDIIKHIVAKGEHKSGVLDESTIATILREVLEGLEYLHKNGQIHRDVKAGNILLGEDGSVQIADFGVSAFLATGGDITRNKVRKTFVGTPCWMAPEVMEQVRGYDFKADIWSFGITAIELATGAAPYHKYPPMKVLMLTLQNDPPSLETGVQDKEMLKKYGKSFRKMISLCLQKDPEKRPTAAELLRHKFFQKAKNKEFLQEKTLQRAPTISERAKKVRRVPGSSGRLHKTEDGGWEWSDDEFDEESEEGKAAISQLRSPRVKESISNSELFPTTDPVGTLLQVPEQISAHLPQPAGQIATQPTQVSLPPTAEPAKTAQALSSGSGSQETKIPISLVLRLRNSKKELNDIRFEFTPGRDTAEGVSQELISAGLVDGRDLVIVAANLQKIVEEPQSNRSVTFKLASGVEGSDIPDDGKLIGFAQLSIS
Sequence of UniProt Q9H0K1 (whole entry, looked up): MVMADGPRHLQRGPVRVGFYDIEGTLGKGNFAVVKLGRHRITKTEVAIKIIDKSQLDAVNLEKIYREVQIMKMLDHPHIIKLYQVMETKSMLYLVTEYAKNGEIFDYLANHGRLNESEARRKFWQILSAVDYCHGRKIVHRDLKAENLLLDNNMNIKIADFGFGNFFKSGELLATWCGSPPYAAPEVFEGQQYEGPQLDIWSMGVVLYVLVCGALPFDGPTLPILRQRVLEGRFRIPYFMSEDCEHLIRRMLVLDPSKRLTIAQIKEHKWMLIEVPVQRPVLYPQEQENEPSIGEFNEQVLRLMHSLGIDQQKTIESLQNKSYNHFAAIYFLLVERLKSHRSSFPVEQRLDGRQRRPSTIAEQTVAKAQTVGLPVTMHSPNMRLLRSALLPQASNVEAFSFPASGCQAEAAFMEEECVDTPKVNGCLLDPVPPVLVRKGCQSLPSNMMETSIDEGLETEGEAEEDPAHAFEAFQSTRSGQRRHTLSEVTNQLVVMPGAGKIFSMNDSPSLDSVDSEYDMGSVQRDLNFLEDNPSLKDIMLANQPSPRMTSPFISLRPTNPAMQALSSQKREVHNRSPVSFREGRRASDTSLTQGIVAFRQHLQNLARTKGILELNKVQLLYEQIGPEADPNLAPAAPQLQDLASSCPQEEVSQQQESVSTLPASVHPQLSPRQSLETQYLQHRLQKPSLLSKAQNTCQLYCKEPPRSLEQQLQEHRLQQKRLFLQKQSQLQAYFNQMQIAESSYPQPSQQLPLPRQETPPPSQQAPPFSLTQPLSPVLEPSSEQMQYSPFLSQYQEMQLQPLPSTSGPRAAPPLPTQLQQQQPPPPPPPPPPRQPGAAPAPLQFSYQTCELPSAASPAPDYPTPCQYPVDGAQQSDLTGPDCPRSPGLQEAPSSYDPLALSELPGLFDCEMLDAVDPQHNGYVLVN
Sequence of UniProt P05771 (whole entry, looked up): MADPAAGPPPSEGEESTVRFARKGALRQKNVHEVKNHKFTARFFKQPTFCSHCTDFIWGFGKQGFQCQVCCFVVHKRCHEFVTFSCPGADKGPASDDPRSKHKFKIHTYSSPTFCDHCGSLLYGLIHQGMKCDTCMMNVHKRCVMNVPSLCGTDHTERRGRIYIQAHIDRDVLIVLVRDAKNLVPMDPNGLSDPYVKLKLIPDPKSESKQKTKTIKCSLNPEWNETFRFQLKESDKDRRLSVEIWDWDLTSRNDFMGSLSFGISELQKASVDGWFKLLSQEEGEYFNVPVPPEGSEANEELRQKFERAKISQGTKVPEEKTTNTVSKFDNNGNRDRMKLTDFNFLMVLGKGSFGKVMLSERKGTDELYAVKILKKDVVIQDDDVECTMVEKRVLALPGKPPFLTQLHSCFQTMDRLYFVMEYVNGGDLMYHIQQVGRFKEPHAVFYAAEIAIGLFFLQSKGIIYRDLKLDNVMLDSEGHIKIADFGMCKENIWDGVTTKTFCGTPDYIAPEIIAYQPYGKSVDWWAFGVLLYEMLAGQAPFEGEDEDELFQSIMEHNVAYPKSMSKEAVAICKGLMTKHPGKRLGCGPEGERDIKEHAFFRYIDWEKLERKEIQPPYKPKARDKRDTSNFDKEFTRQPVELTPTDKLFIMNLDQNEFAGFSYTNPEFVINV
Sequence of UniProt Q9UIK4 (whole entry, looked up): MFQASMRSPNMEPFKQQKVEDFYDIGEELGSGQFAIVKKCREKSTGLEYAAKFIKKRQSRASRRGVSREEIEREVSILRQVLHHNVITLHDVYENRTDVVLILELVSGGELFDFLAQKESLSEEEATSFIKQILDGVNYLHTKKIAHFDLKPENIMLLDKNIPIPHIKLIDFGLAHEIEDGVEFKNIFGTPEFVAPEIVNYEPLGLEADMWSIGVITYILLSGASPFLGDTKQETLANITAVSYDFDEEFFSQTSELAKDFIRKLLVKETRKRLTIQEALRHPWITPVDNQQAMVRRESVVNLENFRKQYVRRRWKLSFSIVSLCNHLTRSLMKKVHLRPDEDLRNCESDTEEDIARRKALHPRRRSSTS

Sample 1
SMILES: O=C1c2ccccc2-c2n[nH]c3cccc1c23
Effect on: enzyme activity
Mode: inhibitor
Tested at: 0.5 µM
Baseline: control
Quantity: remaining activity
CAMK2D (Homo sapiens, UniProt Q13557): 83.4%
TGFBR2 (Homo sapiens, UniProt P37173): 105%
Cyclin-dependent kinase 4, with cyclin D1 (CDK4, Homo sapiens, UniProt P11802): 96.3%
MAP3K3 (Homo sapiens, UniProt Q99759): 105%
GRK3 (Homo sapiens, UniProt P35626): 100%
OXSR1 (Homo sapiens, UniProt O95747): 97.4%
PRKACA (Homo sapiens, UniProt P17612): 98.6%
cGMP-dependent protein kinase 1, isoform beta (PRKG1, Homo sapiens, UniProt Q13976): 100%
DAPK1 (Homo sapiens, UniProt P53355): 81.5%
CHEK2 (Homo sapiens, UniProt O96017): 34.1%
Tyrosine-protein kinase Lyn, isoform B (LYN, Homo sapiens, UniProt P07948): 96.6%
CAMKK2 (Homo sapiens, UniProt Q96RR4): 65.5%
TGFBR1 (Homo sapiens, UniProt P36897): 99.2%
NEK2 (Homo sapiens, UniProt P51955): 104%
MAPK9 (Homo sapiens, UniProt P45984): 36.4%
Protein kinase C beta type, isoform beta-I (PRKCB, Homo sapiens, UniProt P05771): 111%
DAPK2 (Homo sapiens, UniProt Q9UIK4): 109%
STK10 (Homo sapiens, UniProt O94804): 74.7%
PRKCA (Homo sapiens, UniProt P17252): 76.1%
STK39 (Homo sapiens, UniProt Q9UEW8): 82.8%

Sample 2
SMILES: C[C@@]1(Cc2ccc(C#N)cc2)C(=O)N(c2cc(Cl)cc(Cl)c2)c2ncc(C(=O)NC3(c4nc(C5CCC5)no4)CC3)n21
Effect on: cell-free assay
Technique: competition with immobilised ligand
Tested at: 1 µM
Quantity: remaining binding
SRPK1 (Homo sapiens, UniProt Q96SB4): 94%
MKNK2 (Homo sapiens, UniProt Q9HBH9): 100%
PLK1 (Homo sapiens, UniProt P53350): 100%
SIK2 (Homo sapiens, UniProt Q9H0K1): 100%
STK11 (Homo sapiens, UniProt Q15831): 100%
SRC (Homo sapiens, UniProt P12931): 98%
TAOK3 (Homo sapiens, UniProt Q9H2K8): 91%
DYRK1B (Homo sapiens, UniProt Q9Y463): 80%
Receptor-type tyrosine-protein kinase FLT3, autoinhibited (FLT3, Homo sapiens, UniProt P36888): 100%
EPHA7 (Homo sapiens, UniProt Q15375): 92%
PIK3CA (Homo sapiens, UniProt P42336, E542K): 83%
FLT3 (Homo sapiens, UniProt P36888, D835H): 100%
CSNK1A1L (Homo sapiens, UniProt Q8N752): 89%
ACVR1B (Homo sapiens, UniProt P36896): 100%

Sample 3
Cell line: HaCaT
Tested at: 100 µM
Time: 36 h
Quantity: viability
Cc1cc(O)c2c(c1)C(=O)c1cccc(O)c1C2=O: 96.2%
Nc1nc(=O)n([C@@H]2CS[C@H](CO)O2)cc1F: 97.3%
COc1cc2nc(N3CCN(C(=O)C4CCCO4)CC3)nc(N)c2cc1OC (stereo not drawn): 51.9%
CC(C(=O)O)c1ccc2c(c1)Cc1cccnc1O2 (stereo not drawn): 80.7%
O=C(CCCCCCC(=O)Nc1ccccc1)NO: 5.65%
CC(C)NCC(O)COc1ccc(COCCOC(C)C)cc1 (racemic): 80.9%
COc1cc(NC(C)CCCN)c2ncccc2c1 (stereo not drawn): 6.11%
O=C(CCCCCCNC(=O)c1cnc(N(c2ccccc2)c2ccccc2)nc1)NO: 7.55%
Cc1ccnc2c1NC(=O)c1cccnc1N2C1CC1: 91%
COC(=O)C1=CO[C@@H](O[C@@H]2O[C@H](CO)[C@@H](O)[C@H](O)[C@H]2O)[C@@H]2C(CO)=CC[C@H]12: 84.9%
OCCOCCN1CCN(C(c2ccccc2)c2ccc(Cl)cc2)CC1 (stereo not drawn): 19.7%
CNC(=O)c1cc(Oc2ccc(NC(=O)Nc3ccc(Cl)c(C(F)(F)F)c3)c(F)c2)ccn1: 11.5%

Sample 4
Host: mouse
Medium: microsomes or S9
Tested at: 2 µM
Time: 0.5 h
Quantity: remaining compound
CC(C)Oc1ccccc1NS(=O)(=O)c1cccc(S(=O)(=O)C2CCS(=O)(=O)C2)c1 (stereo not drawn): 4.64%
CC(C)C(C)NC(=O)N(C)CC(C)(C)CN1CCOCC1 (stereo not drawn): 0.946%
Cc1nc(O)[nH]c(=O)c1S(=O)(=O)Nc1ccccc1C(=O)NCCc1ccccc1: 45.7%
Cc1c(CC(=O)O)c2ccccc2n1C(=O)c1ccc(N2CCOCC2)nc1: 56.5%
O=C(O)c1cccc(NC(=O)c2cc(S(=O)(=O)Nc3ccc(Br)cc3)ccc2Cl)c1: 44.1%
CCOC(=O)C1CCN(c2nccc3c2OC(C)(C)C=C3)CC1: 0.189%
CCOC(=O)CCCOc1nc(C(C)C)c2c(c1C#N)CCCC2: 40.4%
N#Cc1ccccc1-c1nc2cc(Cl)ccc2c2ccnn12: 0.689%

For quick reference, copied from above (sample 4):
CC(C)C(C)NC(=O)N(C)CC(C)(C)CN1CCOCC1 (stereo not drawn): 0.946%
Cc1nc(O)[nH]c(=O)c1S(=O)(=O)Nc1ccccc1C(=O)NCCc1ccccc1: 45.7%
Cc1c(CC(=O)O)c2ccccc2n1C(=O)c1ccc(N2CCOCC2)nc1: 56.5%
O=C(O)c1cccc(NC(=O)c2cc(S(=O)(=O)Nc3ccc(Br)cc3)ccc2Cl)c1: 44.1%
